Results collected from several papers.
Every numbered part comes from another study and shows a few of its results, in no order.
Sequence of UniProt P15056 (whole entry, unmodified, looked up): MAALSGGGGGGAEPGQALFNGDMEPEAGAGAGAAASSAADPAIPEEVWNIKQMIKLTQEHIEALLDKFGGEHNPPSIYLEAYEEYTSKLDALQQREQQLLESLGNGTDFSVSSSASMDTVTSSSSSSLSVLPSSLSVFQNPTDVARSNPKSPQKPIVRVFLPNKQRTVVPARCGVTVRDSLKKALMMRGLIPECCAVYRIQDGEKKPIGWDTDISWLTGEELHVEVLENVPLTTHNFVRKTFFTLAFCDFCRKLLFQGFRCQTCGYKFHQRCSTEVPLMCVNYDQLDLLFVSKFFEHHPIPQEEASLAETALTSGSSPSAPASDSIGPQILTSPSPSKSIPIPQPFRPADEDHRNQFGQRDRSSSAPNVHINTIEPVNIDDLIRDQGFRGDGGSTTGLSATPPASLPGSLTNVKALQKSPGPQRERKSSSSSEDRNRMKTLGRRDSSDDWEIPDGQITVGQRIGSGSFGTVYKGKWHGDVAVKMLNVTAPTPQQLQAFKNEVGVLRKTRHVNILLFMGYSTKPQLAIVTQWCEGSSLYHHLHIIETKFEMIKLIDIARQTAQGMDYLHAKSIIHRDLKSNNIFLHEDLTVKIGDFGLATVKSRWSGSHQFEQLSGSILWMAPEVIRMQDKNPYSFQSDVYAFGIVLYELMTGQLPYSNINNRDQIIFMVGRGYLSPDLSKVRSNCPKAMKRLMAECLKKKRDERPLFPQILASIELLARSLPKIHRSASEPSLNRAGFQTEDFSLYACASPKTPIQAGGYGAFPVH
Sequence of UniProt P07333 (whole entry, looked up): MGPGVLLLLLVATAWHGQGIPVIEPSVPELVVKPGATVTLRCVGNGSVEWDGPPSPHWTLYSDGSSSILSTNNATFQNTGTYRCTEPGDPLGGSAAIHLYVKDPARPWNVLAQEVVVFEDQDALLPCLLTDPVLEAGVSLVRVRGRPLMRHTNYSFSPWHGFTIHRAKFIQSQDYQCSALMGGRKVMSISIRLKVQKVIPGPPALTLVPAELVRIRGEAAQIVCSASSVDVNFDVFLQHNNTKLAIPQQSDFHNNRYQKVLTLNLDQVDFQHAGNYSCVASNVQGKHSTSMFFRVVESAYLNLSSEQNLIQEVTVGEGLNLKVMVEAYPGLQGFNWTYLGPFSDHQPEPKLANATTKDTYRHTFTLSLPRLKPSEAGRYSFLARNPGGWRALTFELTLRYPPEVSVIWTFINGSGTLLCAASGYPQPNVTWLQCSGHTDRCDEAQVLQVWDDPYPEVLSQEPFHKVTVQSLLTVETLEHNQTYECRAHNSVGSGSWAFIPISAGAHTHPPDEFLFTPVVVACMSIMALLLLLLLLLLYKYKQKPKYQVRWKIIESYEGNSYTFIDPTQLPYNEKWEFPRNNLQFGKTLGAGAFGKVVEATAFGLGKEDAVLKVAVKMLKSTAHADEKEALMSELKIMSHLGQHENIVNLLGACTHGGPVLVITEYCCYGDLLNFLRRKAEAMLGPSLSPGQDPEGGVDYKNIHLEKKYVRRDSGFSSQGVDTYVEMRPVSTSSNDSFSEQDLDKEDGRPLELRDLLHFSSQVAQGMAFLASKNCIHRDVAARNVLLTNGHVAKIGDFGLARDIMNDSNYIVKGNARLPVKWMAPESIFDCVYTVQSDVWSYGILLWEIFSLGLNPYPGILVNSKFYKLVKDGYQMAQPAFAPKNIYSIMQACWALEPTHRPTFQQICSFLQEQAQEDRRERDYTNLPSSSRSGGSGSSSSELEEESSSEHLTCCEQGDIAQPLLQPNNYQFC
Sequence of UniProt P78368 (whole entry, looked up): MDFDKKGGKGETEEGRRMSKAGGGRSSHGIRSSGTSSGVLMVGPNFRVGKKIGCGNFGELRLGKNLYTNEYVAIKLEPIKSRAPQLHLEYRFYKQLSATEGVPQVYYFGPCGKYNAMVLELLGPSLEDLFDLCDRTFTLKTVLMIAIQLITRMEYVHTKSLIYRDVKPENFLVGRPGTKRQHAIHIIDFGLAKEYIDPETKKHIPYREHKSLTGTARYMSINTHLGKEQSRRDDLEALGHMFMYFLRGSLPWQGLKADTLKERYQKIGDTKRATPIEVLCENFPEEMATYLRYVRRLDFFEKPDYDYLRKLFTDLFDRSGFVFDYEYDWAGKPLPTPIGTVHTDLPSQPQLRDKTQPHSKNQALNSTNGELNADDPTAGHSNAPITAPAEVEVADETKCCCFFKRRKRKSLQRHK
Sequence of UniProt Q9HCP0 (whole entry, looked up): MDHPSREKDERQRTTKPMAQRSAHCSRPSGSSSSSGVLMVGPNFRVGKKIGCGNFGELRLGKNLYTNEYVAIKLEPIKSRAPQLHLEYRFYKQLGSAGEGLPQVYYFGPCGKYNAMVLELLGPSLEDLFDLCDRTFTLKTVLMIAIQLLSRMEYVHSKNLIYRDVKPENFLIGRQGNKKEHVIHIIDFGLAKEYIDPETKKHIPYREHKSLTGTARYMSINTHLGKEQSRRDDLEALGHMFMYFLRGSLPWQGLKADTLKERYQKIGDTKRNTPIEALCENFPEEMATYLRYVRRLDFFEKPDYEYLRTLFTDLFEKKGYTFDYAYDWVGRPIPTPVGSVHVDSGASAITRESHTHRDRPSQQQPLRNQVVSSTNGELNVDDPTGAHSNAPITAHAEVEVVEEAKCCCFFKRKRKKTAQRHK
Sequence of UniProt Q9UBF8 (whole entry, looked up): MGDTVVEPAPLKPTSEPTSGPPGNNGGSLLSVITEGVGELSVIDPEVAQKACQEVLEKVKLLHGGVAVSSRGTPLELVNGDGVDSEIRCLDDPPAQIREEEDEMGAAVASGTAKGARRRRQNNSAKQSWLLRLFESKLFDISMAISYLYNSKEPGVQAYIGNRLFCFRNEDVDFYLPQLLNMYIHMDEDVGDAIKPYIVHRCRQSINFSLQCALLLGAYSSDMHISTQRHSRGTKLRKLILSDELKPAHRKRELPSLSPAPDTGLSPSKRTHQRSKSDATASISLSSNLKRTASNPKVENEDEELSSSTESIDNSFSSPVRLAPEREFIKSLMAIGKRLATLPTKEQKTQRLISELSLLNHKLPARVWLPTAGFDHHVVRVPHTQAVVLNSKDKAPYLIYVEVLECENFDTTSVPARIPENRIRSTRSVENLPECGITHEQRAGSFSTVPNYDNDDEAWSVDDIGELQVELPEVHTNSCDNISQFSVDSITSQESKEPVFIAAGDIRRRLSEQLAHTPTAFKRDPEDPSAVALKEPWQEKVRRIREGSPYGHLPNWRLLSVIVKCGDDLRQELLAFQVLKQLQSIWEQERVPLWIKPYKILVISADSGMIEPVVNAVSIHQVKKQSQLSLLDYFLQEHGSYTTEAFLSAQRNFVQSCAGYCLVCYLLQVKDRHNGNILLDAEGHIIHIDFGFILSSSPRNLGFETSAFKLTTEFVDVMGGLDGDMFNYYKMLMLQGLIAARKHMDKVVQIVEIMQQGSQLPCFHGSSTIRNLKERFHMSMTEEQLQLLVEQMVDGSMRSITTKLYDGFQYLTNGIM
Sequence of UniProt Q9UPE1 (whole entry, looked up): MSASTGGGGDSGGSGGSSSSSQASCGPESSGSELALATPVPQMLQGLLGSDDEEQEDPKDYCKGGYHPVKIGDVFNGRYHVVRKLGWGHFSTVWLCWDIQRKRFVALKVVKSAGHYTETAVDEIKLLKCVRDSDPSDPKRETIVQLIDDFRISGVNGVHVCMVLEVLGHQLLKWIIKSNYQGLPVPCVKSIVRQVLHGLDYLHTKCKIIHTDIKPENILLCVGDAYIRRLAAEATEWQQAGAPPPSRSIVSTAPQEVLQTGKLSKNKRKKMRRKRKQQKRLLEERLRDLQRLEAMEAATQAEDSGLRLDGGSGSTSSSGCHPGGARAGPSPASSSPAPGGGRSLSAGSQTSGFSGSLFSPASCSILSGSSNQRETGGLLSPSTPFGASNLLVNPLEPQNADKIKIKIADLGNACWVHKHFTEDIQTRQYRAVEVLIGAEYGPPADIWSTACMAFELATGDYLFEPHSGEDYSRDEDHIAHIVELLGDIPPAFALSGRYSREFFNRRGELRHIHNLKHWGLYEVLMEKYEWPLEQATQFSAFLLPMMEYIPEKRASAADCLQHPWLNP

Sample 1
SMILES: O=C(c1cc2cc(O)ccc2[nH]1)c1cc2cc(O)ccc2[nH]1
Observed: enzyme activity
Action: inhibitor
Concentration: 0.5 µM
Reference: control
| target | remaining activity [%] |
| --- | --- |
| Tyrosine-protein kinase CSK (CSK, Homo sapiens, UniProt P41240) | 106 |
| Macrophage colony-stimulating factor 1 receptor (CSF1R, Homo sapiens, UniProt P07333) | 97.7 |
| Protein kinase C epsilon type (PRKCE, Homo sapiens, UniProt Q02156) | 119 |
| Myosin light chain kinase, smooth muscle (MYLK, Homo sapiens, UniProt Q15746) | 91.4 |
| Beta-adrenergic receptor kinase 1 (GRK2, Homo sapiens, UniProt P25098) | 98.2 |
| G protein-coupled receptor kinase 6 (GRK6, Homo sapiens, UniProt P43250) | 102 |
| Serine/threonine-protein kinase Sgk1 (SGK1, Homo sapiens, UniProt O00141) | 74.2 |
| Serine/threonine-protein kinase pim-2 (PIM2, Homo sapiens, UniProt Q9P1W9) | 108 |
| Fibroblast growth factor receptor 4 (FGFR4, Homo sapiens, UniProt P22455) | 92.8 |
| Glycogen synthase kinase-3 alpha (GSK3A, Homo sapiens, UniProt P49840) | 75.7 |
| SRSF protein kinase 3 (SRPK3, Homo sapiens, UniProt Q9UPE1) | 99.4 |
| Cytoplasmic tyrosine-protein kinase BMX (BMX, Homo sapiens, UniProt P51813) | 80.6 |
| Protein kinase C gamma type (PRKCG, Homo sapiens, UniProt P05129) | 85.1 |
| Ribosomal protein S6 kinase beta-1 (RPS6KB1, Homo sapiens, UniProt P23443) | 85 |
| Ephrin type-A receptor 7 (EPHA7, Homo sapiens, UniProt Q15375) | 101 |
| Aurora kinase C (AURKC, Homo sapiens, UniProt Q9UQB9) | 83.2 |
| Ephrin type-B receptor 2 (EPHB2, Homo sapiens, UniProt P29323) | 76.7 |
| NUAK family SNF1-like kinase 1 (NUAK1, Homo sapiens, UniProt O60285) | 69.2 |
| Ribosomal protein S6 kinase alpha-1 (RPS6KA1, Homo sapiens, UniProt Q15418) | 30.1 |
| Serine/threonine-protein kinase PAK 2 (PAK2, Homo sapiens, UniProt Q13177) | 97 |

Sample 2
Compound: O=C(Nc1cccnn1)N1CC(C/C=C/c2cncc(Oc3ccc(C(F)(F)F)cn3)n2)C1
Method: competition with immobilised ligand
Concentration: 1 µM
| target | observed | remaining binding [%] |
| --- | --- | --- |
| cAMP-dependent protein kinase catalytic subunit beta (PRKACB, Homo sapiens, UniProt P22694) | cell-free assay | 100 |
| Leucine-rich repeat serine/threonine-protein kinase 2 (LRRK2, Homo sapiens, UniProt Q5S007, G2019S) | cell-free assay | 100 |
| Serine/threonine-protein kinase B-raf (BRAF, Homo sapiens, UniProt P15056, V600E) | cell-free assay | 85 |
| Megakaryocyte-associated tyrosine-protein kinase (MATK, Homo sapiens, UniProt P42679) | cell-free assay | 59 |
| Death-associated protein kinase 2 (DAPK2, Homo sapiens, UniProt Q9UIK4) | cell-free assay | 100 |
| Serine/threonine-protein kinase LATS1 (LATS1, Homo sapiens, UniProt O95835) | cell-free assay | 91 |
| Tyrosine-protein kinase Fes/Fps (FES, Homo sapiens, UniProt P07332) | cell-free assay | 91 |
| Macrophage colony-stimulating factor 1 receptor (CSF1R, Homo sapiens, UniProt P07333) | cell-free assay | 100 |
| Casein kinase I isoform gamma-1 (CSNK1G1, Homo sapiens, UniProt Q9HCP0) | cell-free assay | 100 |
| Phosphatidylinositol 4-kinase beta (PI4KB, Homo sapiens, UniProt Q9UBF8) | cell-free assay | 91 |
| Serine/threonine-protein kinase MRCK alpha (CDC42BPA, Homo sapiens, UniProt Q5VT25) | cell-free assay | 100 |
| Cyclin-dependent kinase 4 (CDK4, Homo sapiens, UniProt P11802) | cell-free assay | 86 |
| Mitogen-activated protein kinase kinase kinase 7 (MAP3K7, Homo sapiens, UniProt O43318) | cell-free assay | 93 |
| Receptor-type tyrosine-protein kinase FLT3 (FLT3, Homo sapiens, UniProt P36888, R834Q) | cell-free assay | 66 |
| Serine/threonine-protein kinase B-raf (BRAF, Homo sapiens, UniProt P15056) | cell-free assay | 100 |
| cAMP-dependent protein kinase catalytic subunit alpha (PRKACA, Homo sapiens, UniProt P17612) | cell-free assay | 93 |
| Phosphatidylinositol 4,5-bisphosphate 3-kinase catalytic subunit alpha isoform (PIK3CA, Homo sapiens, UniProt P42336, E545K) | cell-free assay | 81 |
| Tyrosine-protein kinase ABL1, non-phosphorylated (ABL1, Homo sapiens, UniProt P00519, F317I) | cell-free assay | 53 |
| Calcium/calmodulin-dependent protein kinase type 1B (PNCK, Homo sapiens, UniProt Q6P2M8) | cell-free assay | 63 |
| Focal adhesion kinase 1 (PTK2, Homo sapiens, UniProt Q05397) | cell-free assay | 100 |
| Casein kinase I isoform gamma-2 (CSNK1G2, Homo sapiens, UniProt P78368) | cell-free assay | 100 |
| Bone morphogenetic protein receptor type-1A (BMPR1A, Homo sapiens, UniProt P36894) | binding | 100 |
| Protein-tyrosine kinase 2-beta (PTK2B, Homo sapiens, UniProt Q14289) | cell-free assay | 100 |
| Cyclin-dependent kinase 9 (CDK9, Homo sapiens, UniProt P50750) | cell-free assay | 100 |
| Ephrin type-A receptor 2 (EPHA2, Homo sapiens, UniProt P29317) | cell-free assay | 100 |

Sample 3
Host: human
Matrix: microsomes or S9
Concentration: 2 µM
Time: 0.5 h
| Structure (SMILES) | remaining compound [%] |
| --- | --- |
| O=C(Cn1ccc2c(=O)[nH]ccc21)Nc1ccccc1Br | 88 |
| Cc1ccccc1-c1ccc(-n2cncc2C(=O)N2Cc3ccccc3C2)cc1 | 70.2 |
| Cc1cnc(C2=NC(C)(C(C)C)C(=O)N2)c(C(O)C(=O)N(C)c2ccc(Cl)c(Cl)c2)c1 (stereo not drawn) | 5.33 |
| COc1c2c(c(S(=O)(=O)N3CCOCC3)c3c1C(=O)N(C)CC3)OCO2 | 90.6 |
| O=c1c2ccccc2nc(-c2ccco2)n1-c1nc2ccccc2s1 | > 99 |
| O=c1cnnc(Nc2ccc(Br)cc2)[nH]1 | 67.1 |
| COc1cc(Br)c(S(=O)(=O)NCCOc2ccc(C(C)(C)C)cc2)cc1OC | 1.66 |
| Cc1ccc(-c2nc3[nH]c(CNc4ccc(F)cc4)cc(=O)n3n2)cc1 | 0.268 |
| Cc1cc(C(=O)NCCS(=O)(=O)N(C)C)cnc1C | 96.8 |
| CC1=CC(C)(C)N2C(=O)C3(NCCc4c3[nH]c3ccccc43)c3cccc1c32 (stereo not drawn) | 0.164 |
| CCCc1cc(O)nc(N2CCN(c3ccc(Cl)cc3)CC2)n1 | 59.5 |
| CCOC(=O)Cc1c(-c2nc3ccccc3c(=O)[nH]2)[nH]c2ccccc12 | 36 |
| CN(C(=O)c1c[nH]nn1)C1c2ccccc2-c2ccccc21 | 83.9 |
| CC(=O)c1c(NC2CCCc3ccccc32)[nH]c2c(-c3ccccc3)cccc2c1=O (stereo not drawn) | 35.9 |

Sample 4
SMILES: C=CCc1ccc(O)c(-c2ccc(O)c(CC=C)c2)c1
Observed: chloride current
ANO1 del476-501/F628A: Anoctamin-1 (ANO1, Homo sapiens, UniProt Q5XXA6, del476-501/F628A)
Sequence of UniProt Q5XXA6 (whole entry, unmodified, looked up): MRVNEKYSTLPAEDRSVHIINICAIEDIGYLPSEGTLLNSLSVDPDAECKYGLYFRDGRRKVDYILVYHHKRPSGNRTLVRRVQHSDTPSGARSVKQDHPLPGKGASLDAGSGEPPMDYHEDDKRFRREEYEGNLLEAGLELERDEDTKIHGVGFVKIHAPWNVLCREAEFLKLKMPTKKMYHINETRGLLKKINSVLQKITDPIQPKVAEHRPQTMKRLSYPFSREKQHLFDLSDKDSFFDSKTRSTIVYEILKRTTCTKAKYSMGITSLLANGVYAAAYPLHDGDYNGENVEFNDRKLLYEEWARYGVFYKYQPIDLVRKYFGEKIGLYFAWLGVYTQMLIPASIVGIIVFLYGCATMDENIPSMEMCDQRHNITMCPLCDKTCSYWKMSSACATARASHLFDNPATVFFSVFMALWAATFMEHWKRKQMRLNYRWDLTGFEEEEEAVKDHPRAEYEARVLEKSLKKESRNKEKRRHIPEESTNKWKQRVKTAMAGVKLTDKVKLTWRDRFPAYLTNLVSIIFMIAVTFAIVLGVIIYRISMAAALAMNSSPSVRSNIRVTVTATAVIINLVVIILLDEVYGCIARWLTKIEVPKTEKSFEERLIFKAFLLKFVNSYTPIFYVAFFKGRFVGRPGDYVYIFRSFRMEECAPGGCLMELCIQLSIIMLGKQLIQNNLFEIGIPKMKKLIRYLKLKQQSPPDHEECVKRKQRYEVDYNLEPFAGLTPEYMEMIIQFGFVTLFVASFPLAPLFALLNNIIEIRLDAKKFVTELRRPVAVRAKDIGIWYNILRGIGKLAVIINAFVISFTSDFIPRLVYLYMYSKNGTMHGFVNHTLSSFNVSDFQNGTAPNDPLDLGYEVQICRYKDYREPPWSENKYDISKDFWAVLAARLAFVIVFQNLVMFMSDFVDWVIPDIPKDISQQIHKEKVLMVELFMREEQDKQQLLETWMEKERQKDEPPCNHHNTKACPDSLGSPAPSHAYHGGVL
ANO1 del476-501: Anoctamin-1 (ANO1, Homo sapiens, UniProt Q5XXA6, del476-501)
| target | assay | setting | how to read | normalized current |
| --- | --- | --- | --- | --- |
| ANO1 del476-501/F628A | whole-cell voltage clamp | 3 µM, concentration-response at 80 mV, added: 4 µM Ca2+ | – | 0.716 |
| ANO1 del476-501 | whole-cell voltage clamp | 30 µM, wild type, concentration-response at -100 mV, added: 4 µM Ca2+ | – | -0.0524 |
| ANO1 del476-501/F628A | whole-cell voltage clamp | 10 µM, concentration-response at -80 mV, added: 4 µM Ca2+ | – | -0.557 |
| ANO1 del476-501/F628A | whole-cell voltage clamp | 30 µM, I-V at 20 mV, added: 4 µM Ca2+ | – | 0.0738 |
| ANO1 del476-501 | whole-cell voltage clamp | 10 µM, wild type, concentration-response at 60 mV, added: 4 µM Ca2+ | – | 0.164 |
| ANO1 del476-501 | whole-cell voltage clamp | 30 µM, wild type, I-V at 40 mV, added: 4 µM Ca2+ | – | 0.0268 |
| Anoctamin-1 (ANO1, Homo sapiens, UniProt Q5XXA6, del476-501/F807A) | inhibitor, whole-cell voltage clamp | 3 µM | reference: untreated | 1 |
| ANO1 del476-501/F628A | whole-cell voltage clamp | 30 µM, I-V at 80 mV, added: 4 µM Ca2+ | – | 0.377 |
| ANO1 del476-501 | whole-cell voltage clamp | 30 µM, wild type, concentration-response at 80 mV, added: 4 µM Ca2+ | – | 0.0492 |
| ANO1 del476-501/F628A | whole-cell voltage clamp | 1 µM, I-V at 20 mV, added: 4 µM Ca2+ | – | 0.138 |
| Anoctamin-1 (ANO1, Homo sapiens, UniProt Q5XXA6, del476-501/F803A) | inhibitor, whole-cell voltage clamp | 10 µM | reference: untreated | 0.581 |
| Anoctamin-1 (ANO1, Homo sapiens, UniProt Q5XXA6, del476-501/K629A) | inside-out patch clamp | 10 µM, membrane voltage 100 mV | – | 0.751 |
| human TMEM16A K603A/E623A | inhibitor, inside-out patch clamp | 10 µM, at -80 mV | – | -0.315 |

For quick reference, copied from above (sample 4):
| target | assay | setting | how to read | normalized current |
| --- | --- | --- | --- | --- |
| ANO1 del476-501 | whole-cell voltage clamp | 30 µM, wild type, I-V at 40 mV, added: 4 µM Ca2+ | – | 0.0268 |
| Anoctamin-1 (ANO1, Homo sapiens, UniProt Q5XXA6, del476-501/F803A) | inhibitor, whole-cell voltage clamp | 10 µM | reference: untreated | 0.581 |
| ANO1 del476-501 | whole-cell voltage clamp | 10 µM, wild type, concentration-response at 60 mV, added: 4 µM Ca2+ | – | 0.164 |
| ANO1 del476-501 | whole-cell voltage clamp | 30 µM, wild type, concentration-response at -100 mV, added: 4 µM Ca2+ | – | -0.0524 |
| ANO1 del476-501 | whole-cell voltage clamp | 30 µM, wild type, concentration-response at 80 mV, added: 4 µM Ca2+ | – | 0.0492 |
| ANO1 del476-501/F628A | whole-cell voltage clamp | 3 µM, concentration-response at 80 mV, added: 4 µM Ca2+ | – | 0.716 |
